Measured values pooled from the literature.
Each line is one published result; not all experiments were run side by side. ± gives the spread as reported.

N=C(N)NCCC[C@@H]1NC(=O)[C@H](CCCCNC(=O)CNC(=O)CNC(=O)CNC(=O)CC[C@H](NC(=O)CNC(=O)CNC(=O)CNC(=O)CN2CCN(CC(=O)O)CCN(CC(=O)O)CCN(CC(=O)O)CC2)C(=O)NCC(=O)NCC(=O)NCC(=O)NCCCC[C@@H]2NC(=O)[C@@H](Cc3ccccc3)NC(=O)[C@H](CC(=O)O)NC(=O)CNC(=O)[C@H](CCCNC(=N)N)NC2=O)NC(=O)[C@@H](Cc2ccccc2)NC(=O)[C@H](CC(=O)O)NC(=O)CNC1=O [indium-111 labelled] — tissue uptake (female athymic nu/nu mice, blood; intravenous, 72 h): 0.01 %ID/g
CSCC[C@H](NC(=O)[C@H](CC(C)C)NC(=O)[C@H](Cc1c[nH]cn1)NC(=O)CNC(=O)[C@@H](NC(=O)[C@H](C)NC(=O)[C@H](Cc1c[nH]c2ccccc12)NC(=O)[C@H](CCC(N)=O)NC(=O)CCOCCOCCOCCOCCNC(=O)CN1CCN(CC(=O)O)CCN(CC(=O)O)CCN(CC(=O)O)CC1)C(C)C)C(N)=O [indium-111 labelled] — tissue uptake (male Swiss nu/nu mice, PC-3 tumour, kidney; intravenous, 10 pmol, 24 h): 0.7 ± 0.4 %ID/g
CC(C)CC(CC(C)C)NC(=O)[C@H](Cc1cnc[nH]1)NC(=O)CNC(=O)[C@@H](NC(=O)[C@H](C)NC(=O)[C@H](Cc1c[nH]c2ccccc12)NC(=O)[C@H](CCC(N)=O)NC(=O)[C@@H](Cc1ccccc1)NC(=O)COCC(=O)Nc1ccc(CNC(=O)CN2CCN(CC(=O)O)CCN(CC(=O)O)CCN(CC(=O)O)CC2)cc1)C(C)C [lutetium-177 labelled] — tissue uptake (female NMRI-Foxn1 nu/nu mice, T47D xenograft, tumour; 4 MBq, 24 h, placebo group): 5.9 ± 1.22 %ID/g
Cc1cc(-c2ccc(NC(=O)[C@H](CCCCNC(=O)CCOCCOCCC(=O)N[C@H](Cc3ccccc3)C(=O)N[C@H]3CSSC[C@@H](C(=O)N[C@H](C(=O)O)[C@@H](C)O)NC(=O)[C@H]([C@@H](C)O)NC(=O)[C@H](CCCCN)NC(=O)[C@@H](Cc4c[nH]c5ccccc45)NC(=O)[C@H](Cc4ccc(O)cc4)NC3=O)NC(=O)CN3CCN(CC(=O)O)CCN(CC(=O)O)CCN(CC(=O)O)CC3)c(C)c2)ccc1N=Nc1ccc2c(S(=O)(=O)O)cc(S(=O)(=O)O)c(N)c2c1O [lutetium-177 labelled] — tissue uptake (BALB/c nude mice, male, AR-42J tumour, spleen; intravenous, 1.48 MBq): 5.56 ± 1.14 %ID/g
CC(C)C[C@H](NC(=O)CN1CCN(CC(=O)O)CCN(CC(=O)O)CC1)C(=O)N[C@@H](CC(C)C)C(=O)N[C@@H](CC(C)C)C(=O)N[C@@H](CC(C)C)C(=O)N[C@@H](CCCNC(=N)N)C(=O)N[C@H](C(=O)N[C@@H](CCCCN)C(=O)N[C@@H](CCCNC(=N)N)C(N)=O)C(C)C [copper-64 labelled] — tissue uptake (male CD1 mice, bone; intravenous, 15 min, together with: 0.1 µmol unlabelled peptide): 1.9 ± 0.2 %ID/g
CCCC[C@H](NC(=O)CNC(=O)CNC(=O)CN1CCN(CC(=O)O)CCN(CC(=O)O)CC1)C(=O)N[C@H]1CC(=O)NCCCC[C@@H](C(N)=O)NC(=O)[C@H](Cc2c[nH]c3ccccc23)NC(=O)[C@H](CCCNC(=N)N)NC(=O)[C@@H](Cc2ccccc2)NC(=O)[C@H](Cc2c[nH]cn2)NC1=O [technetium-99m labelled] — tissue uptake (C57 mice, intestines; intravenous, 0.037 MBq, 24 h): 0.4 ± 0.4 %ID
CC(C)C[C@@H](NC(=O)[C@@H](CCC(=O)O)NC(=O)[C@@H](CC(C)C)NC(=O)[C@@H](CC(C)C)NC(=O)[C@@H](CC(C)C)NC(=O)[C@H](NC(=O)[C@@H](CCC(=O)O)NC(=O)[C@H](NC(=O)[C@H]1CCCN1C(=O)[C@@H](Cc1ccccc1)NC(=O)[C@@H](CC(C)C)NC(=O)[C@@H](Cc1c[nH]c2ccccc12)NC(=O)[C@@H](CCC(=O)O)NC(=O)[C@@H](CC(C)C)NC(=O)[C@@H](Cc1ccc(O)cc1)NC(=O)[C@@H](CCCNC(=N)N)NC(=O)[C@@H](C)NC(=O)[C@@H](Cc1c[nH]c2ccccc12)NC(=O)[C@H]1CCCN1C(=O)[C@@H](CC(N)=O)NC(=O)[C@@H](CCC(N)=O)NC(=O)[C@@H](CCC(=O)O)NC(=O)[C@@H](CCC(=O)O)NC(=O)[C@@H](CS)NC(=O)[C@@H](C)NC(=S)Nc1ccc(CC2CN(CC(=O)O)CCN(CC(=O)O)CCN2CC(=O)O)cc1)[C@H](C)O)[C@H](C)O)C(=O)O (stereo partly shown) [fluorine-18 labelled] — tissue uptake (BALB/c mice, female, 4T1 orthotopic tumour, large intestine; intravenous, 4 h): 22.1 ± 6.02 %ID/g
CN1C(=O)[C@@H](Cc2ccc(O)cc2)NC(=O)CNC(=O)[C@H](Cc2ccc3ccccc3c2)NC(=O)[C@H](CCCNC(=N)N)NC(=O)[C@H]1CCCNC(=O)c1ccc(CNC(=O)CN2CCN(CC(=O)O)CCN(CC(=O)O)CCN(CC(=O)O)CC2)cc1 [gallium-68 labelled] — tissue uptake (SCID mice, lymphoma xenograft, heart; intravenous, 1 h): 1.2 ± 0.1 %ID/g
CC(C)C[C@@H](NC(=O)[C@@H](CC(C)C)NC(=O)[C@@H](CC(=O)O)NC(=O)[C@@H](CC(C)C)NC(=O)[C@@H](CC(C)C)NC(=O)[C@@H](CC(C)C)NC(=O)[C@H](NC(=O)[C@@H](CC(=O)O)NC(=O)[C@H](NC(=O)[C@H]1CCCN1C(=O)[C@@H](Cc1ccccc1)NC(=O)[C@@H](CC(C)C)NC(=O)[C@@H](CC(C)C)NC(=O)[C@@H](CC(=O)O)NC(=O)[C@@H](CC(C)C)NC(=O)[C@@H](Cc1ccc(O)cc1)NC(=O)[C@@H](C)NC(=O)[C@@H](CCCNC(=N)N)NC(=O)[C@@H](Cc1c[nH]c2ccccc12)NC(=O)[C@H]1CCCN1C(=O)[C@@H](CC(N)=O)NC(=O)[C@@H](CCC(N)=O)NC(=O)[C@@H](CC(=O)O)NC(=O)[C@@H](CC(=O)O)NC(=O)[C@@H](CS)NC(=O)[C@@H](C)NC(=S)Nc1ccc(CC2CN(CC(=O)O)CCN(CC(=O)O)CCN2CC(=O)O)cc1)[C@H](C)O)[C@H](C)O)C(=O)N[C@H](Cc1c[nH]c2ccccc12)C(=O)O (stereo partly shown) [fluorine-18 labelled] — tissue uptake (BALB/c mice, female, 4T1 orthotopic tumour, small intestine; intravenous, 4 h): 0.927 ± 0.152 %ID/g
N=C(N)NCCC[C@@H]1NC(=O)[C@H](CCCCNC(=O)CNC(=O)CNC(=O)CNC(=O)CC[C@H](NC(=O)CNC(=O)CNC(=O)CNC(=O)CC[C@H](NC(=O)CN2CCN(CC(=O)O)CCN(CC(=O)O)CCN(CC(=O)O)CC2)C(=O)NCC(=O)NCC(=O)NCC(=O)N[C@@H](CCC(=O)NCC(=O)NCC(=O)NCC(=O)NCCCC[C@@H]2NC(=O)[C@@H](Cc3ccccc3)NC(=O)[C@H](CC(=O)O)NC(=O)CNC(=O)[C@H](CCCNC(=N)N)NC2=O)C(=O)NCC(=O)NCC(=O)NCC(=O)NCCCC[C@@H]2NC(=O)[C@@H](Cc3ccccc3)NC(=O)[C@H](CC(=O)O)NC(=O)CNC(=O)[C@H](CCCNC(=N)N)NC2=O)C(=O)NCC(=O)NCC(=O)NCC(=O)NCCCC[C@@H]2NC(=O)[C@@H](Cc3ccccc3)NC(=O)[C@H](CC(=O)O)NC(=O)CNC(=O)[C@H](CCCNC(=N)N)NC2=O)NC(=O)[C@@H](Cc2ccccc2)NC(=O)[C@H](CC(=O)O)NC(=O)CNC1=O [indium-111 labelled] — tissue uptake (female athymic nu/nu mice, eyes; intravenous, 72 h): 0.53 ± 0.12 %ID/g
CCCC[C@H](NC(=O)COCCOCCNC(=O)CN1CCN(CC(=O)O)CCN(CC(=O)O)CC1)C(=O)N[C@H]1CC(=O)NCCCC[C@@H](C(N)=O)NC(=O)[C@H](Cc2c[nH]c3ccccc23)NC(=O)[C@H](CCCNC(=N)N)NC(=O)[C@@H](Cc2ccccc2)NC(=O)[C@H](Cc2c[nH]cn2)NC1=O [copper-64 labelled] — tissue uptake (C57 mice, intestine; intravenous, 0.37 MBq, 0.5 h): 3.26 ± 1.86 %ID
N=C(N)NCCC[C@@H]1NC(=O)[C@H](CCCCNC(=O)CC[C@H](NC(=O)CC[C@H](NC(=O)CN2CCN(CC(=O)O)CCN(CC(=O)O)CCN(CC(=O)O)CC2)C(=O)N[C@@H](CCC(=O)NCCCC[C@@H]2NC(=O)[C@@H](Cc3ccccc3)NC(=O)[C@H](CC(=O)O)NC(=O)CNC(=O)[C@H](CCCNC(=N)N)NC2=O)C(=O)NCCCC[C@@H]2NC(=O)[C@@H](Cc3ccccc3)NC(=O)[C@H](CC(=O)O)NC(=O)CNC(=O)[C@H](CCCNC(=N)N)NC2=O)C(=O)NCCCC[C@@H]2NC(=O)[C@@H](Cc3ccccc3)NC(=O)[C@H](CC(=O)O)NC(=O)CNC(=O)[C@H](CCCNC(=N)N)NC2=O)NC(=O)[C@@H](Cc2ccccc2)NC(=O)[C@H](CC(=O)O)NC(=O)CNC1=O [indium-111 labelled] — tissue uptake (female athymic nu/nu mice, lungs; intravenous, 1 h): 3.43 ± 0.54 %ID/g
CC(C)C[C@H](NC(=O)[C@H](Cc1ccc(O)cc1)NC(=O)[C@@H](CCCNC(=N)N)NC(=O)[C@@H](CO)NC(=O)[C@H](Cc1ccccc1)NC(=O)[C@H](CC1CCCCC1)NC(=O)[C@H](CC(=O)O)NC(=O)CN1CCCN2CCN(CCCN(CC(=O)O)CC2)CC1)C(=O)N[C@@H](Cc1c[nH]c2ccccc12)C(=O)N[C@@H](CO)C(=O)O [copper-64 labelled] — tissue uptake (female NMRI nude mice, tumor; 22 h p.i.): 2.1 ± 0.3 %ID/g

Excerpt of the above:
CC(C)CC(CC(C)C)NC(=O)[C@H](Cc1cnc[nH]1)NC(=O)CNC(=O)[C@@H](NC(=O)[C@H](C)NC(=O)[C@H](Cc1c[nH]c2ccccc12)NC(=O)[C@H](CCC(N)=O)NC(=O)[C@@H](Cc1ccccc1)NC(=O)COCC(=O)Nc1ccc(CNC(=O)CN2CCN(CC(=O)O)CCN(CC(=O)O)CCN(CC(=O)O)CC2)cc1)C(C)C [lutetium-177 labelled] — tissue uptake (female NMRI-Foxn1 nu/nu mice, T47D xenograft, tumour; 4 MBq, 24 h, placebo group): 5.9 ± 1.22 %ID/g
CC(C)C[C@@H](NC(=O)[C@@H](CC(C)C)NC(=O)[C@@H](CC(=O)O)NC(=O)[C@@H](CC(C)C)NC(=O)[C@@H](CC(C)C)NC(=O)[C@@H](CC(C)C)NC(=O)[C@H](NC(=O)[C@@H](CC(=O)O)NC(=O)[C@H](NC(=O)[C@H]1CCCN1C(=O)[C@@H](Cc1ccccc1)NC(=O)[C@@H](CC(C)C)NC(=O)[C@@H](CC(C)C)NC(=O)[C@@H](CC(=O)O)NC(=O)[C@@H](CC(C)C)NC(=O)[C@@H](Cc1ccc(O)cc1)NC(=O)[C@@H](C)NC(=O)[C@@H](CCCNC(=N)N)NC(=O)[C@@H](Cc1c[nH]c2ccccc12)NC(=O)[C@H]1CCCN1C(=O)[C@@H](CC(N)=O)NC(=O)[C@@H](CCC(N)=O)NC(=O)[C@@H](CC(=O)O)NC(=O)[C@@H](CC(=O)O)NC(=O)[C@@H](CS)NC(=O)[C@@H](C)NC(=S)Nc1ccc(CC2CN(CC(=O)O)CCN(CC(=O)O)CCN2CC(=O)O)cc1)[C@H](C)O)[C@H](C)O)C(=O)N[C@H](Cc1c[nH]c2ccccc12)C(=O)O (stereo partly shown) [fluorine-18 labelled] — tissue uptake (BALB/c mice, female, 4T1 orthotopic tumour, small intestine; intravenous, 4 h): 0.927 ± 0.152 %ID/g
